Measurements gathered from unrelated publications.
Parts stem from different laboratories: compare values within a part only.

Series 1
Target: Hepatocyte nuclear factor 3-alpha (Foxa1, Mus musculus, UniProt P35582, residues 1-468, full length assumed)
Chain of UniProt P35582 (whole entry, looked up): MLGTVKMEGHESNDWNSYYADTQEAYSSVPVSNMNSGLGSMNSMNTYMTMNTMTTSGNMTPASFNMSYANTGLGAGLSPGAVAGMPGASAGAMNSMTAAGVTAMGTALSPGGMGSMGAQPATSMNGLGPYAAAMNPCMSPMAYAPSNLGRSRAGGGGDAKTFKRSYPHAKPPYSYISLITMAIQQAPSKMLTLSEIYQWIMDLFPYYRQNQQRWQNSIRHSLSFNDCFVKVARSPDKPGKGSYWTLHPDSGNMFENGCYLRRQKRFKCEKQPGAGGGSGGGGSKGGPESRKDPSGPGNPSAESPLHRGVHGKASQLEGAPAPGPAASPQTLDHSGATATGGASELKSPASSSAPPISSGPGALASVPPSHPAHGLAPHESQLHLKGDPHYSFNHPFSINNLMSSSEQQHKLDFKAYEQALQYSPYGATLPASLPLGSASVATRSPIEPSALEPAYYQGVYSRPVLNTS
Technique: EMSA with sequencing
Form: double-stranded DNA, one strand shown
Medium: in vitro
Concentration: 10 and 20 nM
Notes: whole designed probe, mean of two concentrations, ends assumed
Reference: negative control set to 0
Direction: higher = stronger binding
Shared flanks, not repeated: GTGAGCGGTGCCCATTGATGGGGAAC … TTTCACTGGGATCGTGGGGAC
Strand | normalised bound fraction
ATCTTCCCCCTCTTCCTTGCCCCACCAGCTCACCTACGGGGGTTATTTGCACAAAGGAAAATAAATAAAGCCGGCATTCGTTAACCCTCTTCTGGCGCAAACTGCTGTTTGCTCTGGATGAATCATGGTCCTTTGGCGACGCCAGGCTCCGGGAGAGCAAAGCACCGTGTCAGGGCCATGATCCGGGCTCGCC | 0.371 ratio
TACATAACTGAACAGTGATTAAATATTGACTAAGAGCCAGGAGTTGACAGCCATTGGCCTCACCCTGGTAAATGCTGATATATGATGCTGAATGTAATTTCAGAGCCATCCTCTCAGGGCCATAGTTTTGTTGGTTTTTTTTTTTTTTTTCTGTTGGGAGATGGGGAGCCAGCAAGTTGTAGCTTATGCTTGA | 0.14 ratio
AATATTTCAAACACTACGTACCCCAACTGACATTTGAGTAGCAGTTAAGTTCTTGGAACGCTGCCATTTTGGTTACGTAACATCTAGCTCATTGTAAACAGGATGAAATAGGGCAGTTAAAAGACTAATGGTCAGTGAAATCTACAACAGGAATGGAAAGAATTTTCCCCTTAAAAATTTGGAAATCCTTATT | 0.217 ratio
AACAGAATTATGCCTTGCATACTGAGTAAGTGATGACATTCAGCAGAACACCCACTATGGAGAGCACCAGATTATAGCTGTCCTTAAACTGCTAGATTGCTTTGCCCTGATAAAAGAAAAAATGTTCATAGAGTTTTCTAAGTCTCTTTTGTGTGGTTAGTTTATTTGCTTGTTGTATGTGAATAAGAAAGAT | 0.177 ratio
GGGAATTTTTATATAATACCAACTAATGAGTGTAAAACAAAGAAACAAAAAGAAACCAGTCCACAGAAACCAGAGTTGAGGCATCTCACTCAGTGTTGACTCTCAAGGTGATTACCCTGTGAAACTATGTACTGTTCTTGCATAACAATTTTTGGAATCTTTTGCTTTGAAATGCCTTCAGAATCAGTTCATG | 0.06 ratio
TGATGAGAAACATGATAATTATTTAGTCTGAAAGGATCTTCTCCAATAATTTTTTTTTGTCGTGATACATTCTCCACCCCCTCCTGACTAAATGCAAACAAACCTAAATTGAGGGAAATTCTATGCAATACCTAACCATTATTCATCAAATGTACACAGGAGTACAGTGACACAATCATGGTTCACTGTAACC | 0.346 ratio

Series 2
Target: RING finger protein unkempt homolog, zinc fingers 1-6, GST-SBP tag (UNK, Homo sapiens, UniProt Q9C0B0, residues 30-357)
Chain of UniProt Q9C0B0 (30-357, looked up): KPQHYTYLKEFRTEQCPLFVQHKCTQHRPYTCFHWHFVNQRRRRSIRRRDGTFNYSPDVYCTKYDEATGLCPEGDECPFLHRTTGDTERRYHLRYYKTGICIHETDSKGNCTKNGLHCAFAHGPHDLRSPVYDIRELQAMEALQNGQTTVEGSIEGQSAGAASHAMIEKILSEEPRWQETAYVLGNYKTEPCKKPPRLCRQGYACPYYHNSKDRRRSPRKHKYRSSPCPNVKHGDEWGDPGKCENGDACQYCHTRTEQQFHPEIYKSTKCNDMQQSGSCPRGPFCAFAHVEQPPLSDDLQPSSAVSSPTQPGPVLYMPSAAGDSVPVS
Technique: RNA Bind-n-Seq
Form: RNA
Medium: in vitro
Concentration: not given
Notes: RNA with constant flanks, ends assumed
Reference: input RNA pool
Direction: higher = stronger binding
Shared flanks, not repeated: GGGAGUUCUACAGUCCGACGAUC … CAACAGAGGAUUGAGCAUCA
Strand | bound/input enrichment
CAUGUUUAUAAUGUGCACAGAAAAAGCUUGAGAAUGAUAAUUUUGGUUUAAAUGUGCUGGUCCGUUGAUGUUAUGACUACUUUAAAUUUUAAGGAUUGUGACACACUCCUACUAUUGAAA | 0.285 ratio
AAUACUGUUCCUGGAUAUGACUUUUUGGUGAAUUCUGUUUGGCCACAAAUAGUACAAGGAUCCGAAGAAAAGUUACCCUCGCUUUUUAAUCCUGGGAAUCCCGAUGCAUUUCAUGAGAAA | 0.211 ratio
CUUAAAAUUAAUUUUCAUGGUUCCAAGUCAUCAGAUUCUAGUGAAGUUCACAAGAGUAAAACCGAAAUUAAUGUGUUAGAACCAGUUAUGUCACAGCUAUCAAAUUGCCAAGAUAAUUCU | 0.395 ratio
CUGUCUGAUAUCAUGGUCUCCCUGGCAAAUGCGUCAACUUUGCAGAAGGAUUGCAGUUGGACCGAAAUGAUAAGGAAAUUUGUAACAGAGACCCUUGAAGAUGGCUCUAGGCUAAAUAGU | 0.213 ratio
CCUGAGAAUGUCUAUAGCGUUCACUUCGAAAAGGAGCAUAAAGCUGAGAAAGUCCCAGCCGCCGCUAACUACAUUAUGAAAAUACACAAUUUUACUAGCAAAUGCCUCUACUGUAAUCGC | 2.63 ratio
GUUCCUUUCGGCAGUGCUGCGUGCCCAGAUUCUUAAUAACAUUAAGUCUGUUACUGUGUACCGCAAUGGUUUAUAUUUCAUUAUGCUACUAAAGGUUCAUCUUUUCUACAUUAAAAAUAU | 0.227 ratio
UUUAUAAGUCCAGAGUCUGGUUUUUAACAAGCUGUUCUUCAGUAUUCAGCUUAAGACCGGCAACUCUUUUCUGUACAUAGUGUACAUUACAACUAAAAGUAAUGGGAAACACUGUAUUUU | 0.166 ratio

Series 3
Target: Histone acetyltransferase KAT6A, winged helix 2, GST fusion (KAT6A, Homo sapiens, UniProt Q92794, residues 85-181)
Technique: protein binding microarray
Form: double-stranded DNA, one strand shown
Medium: in vitro
Concentration: not given
Notes: 8-mer, flanks averaged, mean of 2 arrays, mostly near background
Reference: not given
Direction: higher = stronger binding
Residues (chain): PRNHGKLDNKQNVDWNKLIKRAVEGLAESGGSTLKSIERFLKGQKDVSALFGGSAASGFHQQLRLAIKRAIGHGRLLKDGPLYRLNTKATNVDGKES
Strand | E-score
CTCTACAG | -0.049
GCAATGGC | 0.0263
AAGGACTA | -0.101
TCCTAAAA | 0.0842
CCACGTAA | -0.261
CACATGAA | -0.0483
CACGCCCC | 0.197
GCGCAGAA | 0.145

Other studies, line by line
Molecule | target | assay | test system | setting | scale | endpoint | result
PhoQ, residues 284 288 289 292 302 303 ALASRC | PhoP, residues 12 14 15 18 19 NMSFL (Escherichia coli, UniProt P23836) | Sort-seq, item: YFP reporter | E. coli | PhoQ-PhoP variant library, with: 10 µM Mg2+ | reference: high Mg2+ state, higher = stronger signaling | fold induction | 10.1

For quick reference, copied from above (series 1):
Strand | normalised bound fraction
GGGAATTTTTATATAATACCAACTAATGAGTGTAAAACAAAGAAACAAAAAGAAACCAGTCCACAGAAACCAGAGTTGAGGCATCTCACTCAGTGTTGACTCTCAAGGTGATTACCCTGTGAAACTATGTACTGTTCTTGCATAACAATTTTTGGAATCTTTTGCTTTGAAATGCCTTCAGAATCAGTTCATG | 0.06 ratio
TGATGAGAAACATGATAATTATTTAGTCTGAAAGGATCTTCTCCAATAATTTTTTTTTGTCGTGATACATTCTCCACCCCCTCCTGACTAAATGCAAACAAACCTAAATTGAGGGAAATTCTATGCAATACCTAACCATTATTCATCAAATGTACACAGGAGTACAGTGACACAATCATGGTTCACTGTAACC | 0.346 ratio
